Results gathered from unrelated publications.
Each numbered part is a random draw from the data of one study; scales do not carry over between parts. Positions count from the first letter of the parent shown.

Series 1 — target: CCNA1, cyclin fold, Cln2 fusion (human); technique: yeast growth competition, sequencing; matrix: yeast; notes: weak parent motif; reference: not given; reading: higher = stronger binding
Starting sequence: MICAL3 docking peptide (human); LQLRRQLSFSEDS; partner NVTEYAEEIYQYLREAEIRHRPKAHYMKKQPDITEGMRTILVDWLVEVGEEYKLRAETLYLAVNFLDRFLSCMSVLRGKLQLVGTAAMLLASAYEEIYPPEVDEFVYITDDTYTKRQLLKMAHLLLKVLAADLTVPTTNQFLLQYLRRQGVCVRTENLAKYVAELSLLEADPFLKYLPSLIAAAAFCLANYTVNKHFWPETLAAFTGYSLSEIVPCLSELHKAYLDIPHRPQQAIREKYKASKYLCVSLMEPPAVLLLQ
Substitution | normalised enrichment score
E11N | 0.422
Q2F | 0.269
Q2C | 0.498
R5E | 0.0599
S8V | 0.342
F9S | 0.293
F9D | -0.274
R5W | -0.164
F9E | -0.0197
S10R | 1.29
S8N | 0.527
R4D | -0.227
Q2I | 0.023
L7Q | 0.0127
L3M | 0.117
R4Q | 0.000284
S10Q | 0.23
R4A | 0.317
D12H | 0.372
R5S | -0.0496
L3V | 1.65
D12S | 0.136
S8T | 0.361
R4Y | 0.261
R5N | 0.466

Series 2 — target: CEBPA, bZIP domain (human); technique: DHFR protein complementation; matrix: yeast; reference: wild-type JUN-FOS pair; reading: higher = stronger binding
Notes: single substitutions, most at no-binding floor
Starting sequence: JUN, bZIP domain (human); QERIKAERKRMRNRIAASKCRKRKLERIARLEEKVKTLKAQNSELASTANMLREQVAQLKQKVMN; partner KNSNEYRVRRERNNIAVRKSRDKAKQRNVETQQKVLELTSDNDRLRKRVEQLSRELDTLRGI
Substitution | binding fitness
L52K | -1.57 natural log
A40M | -1.4 natural log
L52I | -1.5 natural log
L45H | -1.57 natural log
L59G | -1.35 natural log
I28M | -1.35 natural log
E44D | -1.44 natural log
L52G | -1.49 natural log
L31K | -1.53 natural log
E32C | -1.37 natural log
E54M | -1.46 natural log
A29P | -1.42 natural log
M51R | -1.43 natural log
S43W | -1.43 natural log
N42T | -1.51 natural log
A49P | -1.47 natural log
L52Q | -1.48 natural log

Series 3 — technique: Spec-seq; form: double-stranded DNA, one strand shown; matrix: in vitro; tested at: not given; notes: whole probe, mean of replicates; reference: not given; reading: lower = stronger binding; all sequences stand within: GAGTCGTCTCGTCAGCAC … CCGTAGAGCACTCAGGTC
Target: POU domain, class 5, transcription factor 1, POU domain (Pou5f1, Mus musculus, UniProt P20263, residues 131-289)
UniProt P20263, sequence (131-289, looked up): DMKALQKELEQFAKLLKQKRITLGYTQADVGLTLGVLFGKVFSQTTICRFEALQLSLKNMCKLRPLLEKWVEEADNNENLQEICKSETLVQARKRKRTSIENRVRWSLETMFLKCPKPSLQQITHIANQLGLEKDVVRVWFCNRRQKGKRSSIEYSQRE
Oligonucleotide | relative binding energy
ATATTGAT | -0.136 ln ratio
CATGTAAT | 0.468 ln ratio
ATTAAAAT | -0.652 ln ratio
ATGCCGTA | 0.699 ln ratio
AATTTAAT | -0.253 ln ratio
ATACGCAT | -0.281 ln ratio
CCAGTAAT | 0.836 ln ratio
ATGCGACC | 0.507 ln ratio
ATGCAACG | -0.0516 ln ratio
ATGCCCCT | 0.581 ln ratio
AGGGTAAT | 0.62 ln ratio
ATGCACCG | 0.227 ln ratio
GGAGTAAT | 1.09 ln ratio
ATAGTGAT | 0.54 ln ratio

Series 4 — technique: RNA Bind-n-Seq; form: RNA; matrix: in vitro; tested at: 365 nM; reference: no-protein control; reading: higher = stronger binding
Target: RNA binding protein fox-1 homolog 2, RRM domain, GST-SBP tag (RBFOX2, Homo sapiens, UniProt O43251-10, residues 100-194)
Notes: natural RNA segment, single round, ends assumed
All sequences stand within: GGGAGUUCUACAGUCCGACGAUC … UGGAAUUCUCGGGUGCCAA
Construct (chain): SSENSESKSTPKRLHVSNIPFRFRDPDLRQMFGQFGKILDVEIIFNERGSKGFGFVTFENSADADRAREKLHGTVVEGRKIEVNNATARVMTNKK
Oligonucleotide | RBNS enrichment (R)
UGAGUUAUAUGUGGUAGAUUAUAUUGACUCCAACCAUCAGCCUUUCUGAUGAGCCUGUAGAGAAGCCUAGAGAGCCCCGGGCCAUCUGAUGAUGUCACCAGUGCUGCCUC | 0.304
CAUGACACAUGCCUCUGGCAAAGCCAUCCAGCCUGUACUGCCUCCGUGGAAGGCCUAGACCCAGCAGAGACCCCUUGGUGGGUCUGCCAUGCCUGUGGGGAAACACUGCU | 0.772
GCCAUUUCUGGGGUUUGUCUGUUCUAUCUCCUGCCUACCAGUCGGUAUCUUCAGCUGUUUCUUCUAUUGCUGGAUUUUCUGUUCCUUUUCCCCAGUGUUCUGUUUUCUUU | 0.378
CUUAAGUGGAAGGAAAAGAGUGCUGAGAAAUGGCUCUGUAUAAUCUAUGGCUAUCCGAAUUCUCUGAAAAAAUAAUAAAAGUCCCCUCUAUUAUAUGAGCCUGUACAGAA | 1.19
AAGCAGGGAUACCCUCUUCUUUAGGACUAGAGCUGCCAUUCUUUUCAUCUUUAGCACAAGGAAGGUAUUUAAGUGAGCCAGAGACAAACAGAGCCAUUUUAGUCUUCAUA | 0.558
AAAUGACGUUUAUUAAAAACAUUCAACAAAUUGUUGCCUUUUUAAAAUUAUCACACUUGCACAUGAAGAUAAAACAUGAAGUAAUUGUGCUGGUAGCCUUUUGGGAAUUG | 0.291
GUCUAAAGGUUUCUAAGUGUAUCUUGCAAGAGAAUCUCCACUCCAGCAAUCACAGCUCAAAUUGUGGACAAUCAAACCAAAGCCUUCAUUUAAGUUUGGCCACAUUUCAA | 0.564
UGAGACCCUAGAGACCAGCGAAGGGAGAAGUUGGGAAGCUACGUUCUGUUGGCCACCAGACUUGCAUUUCAGCCUCUGUCAUAAUGCUCUGCCCUCCCUCCCCCGAAGGU | 0.519

For quick reference, copied from above (series 1):
Substitution | normalised enrichment score
R5W | -0.164
R5E | 0.0599
L3M | 0.117
Q2C | 0.498
R5S | -0.0496
F9E | -0.0197
